Results gathered from unrelated publications.
A part holds a random share of what one study measured.

Series 1
Target: RNA binding protein fox-1 homolog 2, RRM domain, GST-SBP tag (RBFOX2, Homo sapiens, UniProt O43251-10, residues 100-194)
Method: RNA Bind-n-Seq
Molecule type: RNA
Matrix: in vitro
Tested at: 365 nM
Notes: natural RNA segment, single round, ends assumed
Baseline: no-protein control
Reading: higher = stronger binding
Residues (chain): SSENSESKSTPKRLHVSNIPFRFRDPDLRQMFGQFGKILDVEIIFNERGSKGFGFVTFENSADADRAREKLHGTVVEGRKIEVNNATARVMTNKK
Sequence | RBNS enrichment (R)
GGGAGUUCUACAGUCCGACGAUCACUCAGAGUUGGUGUGGCCUACCUGGCUAUACAUCUUCAUCCCUCCCCACCAUCCUGGGGAAGUGAUGGUGUGGCCAGGCAGUUAUAGAUUAAAGGCCUGUGAGUACUGCUGGAAUUCUCGGGUGCCAA | 0.226
GGGAGUUCUACAGUCCGACGAUCCCAGAUUGUUUCUGCUUUGGGUGCAGCUGUUUAGUUCAGAGUUAUAUUACAGAGAAUUAUUUUCUGAGAUAAUCUUAAACUAGAAUGUUCAAAACUAAUUGAUAAUUGAAUGGAAUUCUCGGGUGCCAA | 0.585
GGGAGUUCUACAGUCCGACGAUCGGAAGGUGAGAUGGCCAGUUUGAAGCCUGUGCCUCCCAGCUUAAAUCCUAGCAGGAGAGAGGCUCUGGGGCAGCCCCCAUGGGCUCCUGCCCCUUUCAGGCCUACAGCCAUGGAAUUCUCGGGUGCCAA | 0.274

Series 2
Target: PABPC1L2, full length, GST fusion (mouse, UniProt A0ABA7IW68)
Method: RNAcompete
Molecule type: RNA
Matrix: in vitro
Tested at: 20 nM
Notes: 7-mer, probes averaged, single round
Baseline: mean of 7-mers
Reading: higher = stronger binding
Target sequence (chain): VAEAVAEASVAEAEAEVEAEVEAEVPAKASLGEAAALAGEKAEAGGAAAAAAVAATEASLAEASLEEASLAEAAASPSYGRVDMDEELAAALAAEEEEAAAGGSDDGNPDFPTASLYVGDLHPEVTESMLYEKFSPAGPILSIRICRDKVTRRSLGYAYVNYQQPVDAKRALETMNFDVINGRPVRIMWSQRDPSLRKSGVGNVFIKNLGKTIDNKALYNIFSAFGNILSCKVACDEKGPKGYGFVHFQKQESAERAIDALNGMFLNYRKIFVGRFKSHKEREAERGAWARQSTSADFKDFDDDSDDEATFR
Sequence | 7-mer Z-score
CACUGAC | -0.15
GACGUGA | -0.135
UUACUCU | -0.425

Series 3
Target: Sal-like protein 4, full length isoform B (SALL4, Homo sapiens, UniProt Q9UJQ4-2, residues 1-616)
Method: universal PBM
Molecule type: double-stranded DNA, one strand shown
Matrix: in vitro
Tested at: not given
Notes: 8-mer, flanks averaged, mean of replicates
Reading: higher = stronger binding
Target sequence (chain): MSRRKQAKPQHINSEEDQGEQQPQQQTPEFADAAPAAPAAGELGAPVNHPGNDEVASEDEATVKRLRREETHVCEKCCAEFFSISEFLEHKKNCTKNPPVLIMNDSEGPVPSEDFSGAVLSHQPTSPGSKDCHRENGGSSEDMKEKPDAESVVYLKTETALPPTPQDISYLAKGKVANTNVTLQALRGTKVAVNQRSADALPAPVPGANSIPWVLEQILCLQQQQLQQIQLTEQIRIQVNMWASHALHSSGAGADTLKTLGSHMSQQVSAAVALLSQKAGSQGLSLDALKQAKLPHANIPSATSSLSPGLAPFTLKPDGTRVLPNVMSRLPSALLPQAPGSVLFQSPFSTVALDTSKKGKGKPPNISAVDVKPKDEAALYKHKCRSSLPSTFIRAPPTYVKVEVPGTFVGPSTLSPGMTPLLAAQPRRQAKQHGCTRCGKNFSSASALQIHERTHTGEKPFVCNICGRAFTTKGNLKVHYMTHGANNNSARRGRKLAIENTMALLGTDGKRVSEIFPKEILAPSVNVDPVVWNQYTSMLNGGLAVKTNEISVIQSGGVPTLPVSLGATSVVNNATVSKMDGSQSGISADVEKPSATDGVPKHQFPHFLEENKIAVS
Sequence | E-score
GATCAGCA | -0.102
CATGCTTC | 0.0214
ACCTGTGG | -0.119

Mixed results
Substance | target | test | system | conditions | scale | quantity | result
PhoQ, residues 284 288 289 292 302 303 SIHLQL | PhoP, residues 12 14 15 18 19 NNFVT (Escherichia coli, UniProt P23836) | Sort-seq, measured: YFP reporter | E. coli | PhoQ-PhoP variant library, together with: 10 µM Mg2+ | baseline: high Mg2+ state, higher = stronger signaling | fold induction | 11.4

For quick reference, copied from above (series 3):
Sequence | E-score
CATGCTTC | 0.0214
ACCTGTGG | -0.119
